Literature values, collected from citations in different studies.
Lines come from different studies, so protocols differ.
UniProt Q9NRP7, sequence (whole entry, looked up): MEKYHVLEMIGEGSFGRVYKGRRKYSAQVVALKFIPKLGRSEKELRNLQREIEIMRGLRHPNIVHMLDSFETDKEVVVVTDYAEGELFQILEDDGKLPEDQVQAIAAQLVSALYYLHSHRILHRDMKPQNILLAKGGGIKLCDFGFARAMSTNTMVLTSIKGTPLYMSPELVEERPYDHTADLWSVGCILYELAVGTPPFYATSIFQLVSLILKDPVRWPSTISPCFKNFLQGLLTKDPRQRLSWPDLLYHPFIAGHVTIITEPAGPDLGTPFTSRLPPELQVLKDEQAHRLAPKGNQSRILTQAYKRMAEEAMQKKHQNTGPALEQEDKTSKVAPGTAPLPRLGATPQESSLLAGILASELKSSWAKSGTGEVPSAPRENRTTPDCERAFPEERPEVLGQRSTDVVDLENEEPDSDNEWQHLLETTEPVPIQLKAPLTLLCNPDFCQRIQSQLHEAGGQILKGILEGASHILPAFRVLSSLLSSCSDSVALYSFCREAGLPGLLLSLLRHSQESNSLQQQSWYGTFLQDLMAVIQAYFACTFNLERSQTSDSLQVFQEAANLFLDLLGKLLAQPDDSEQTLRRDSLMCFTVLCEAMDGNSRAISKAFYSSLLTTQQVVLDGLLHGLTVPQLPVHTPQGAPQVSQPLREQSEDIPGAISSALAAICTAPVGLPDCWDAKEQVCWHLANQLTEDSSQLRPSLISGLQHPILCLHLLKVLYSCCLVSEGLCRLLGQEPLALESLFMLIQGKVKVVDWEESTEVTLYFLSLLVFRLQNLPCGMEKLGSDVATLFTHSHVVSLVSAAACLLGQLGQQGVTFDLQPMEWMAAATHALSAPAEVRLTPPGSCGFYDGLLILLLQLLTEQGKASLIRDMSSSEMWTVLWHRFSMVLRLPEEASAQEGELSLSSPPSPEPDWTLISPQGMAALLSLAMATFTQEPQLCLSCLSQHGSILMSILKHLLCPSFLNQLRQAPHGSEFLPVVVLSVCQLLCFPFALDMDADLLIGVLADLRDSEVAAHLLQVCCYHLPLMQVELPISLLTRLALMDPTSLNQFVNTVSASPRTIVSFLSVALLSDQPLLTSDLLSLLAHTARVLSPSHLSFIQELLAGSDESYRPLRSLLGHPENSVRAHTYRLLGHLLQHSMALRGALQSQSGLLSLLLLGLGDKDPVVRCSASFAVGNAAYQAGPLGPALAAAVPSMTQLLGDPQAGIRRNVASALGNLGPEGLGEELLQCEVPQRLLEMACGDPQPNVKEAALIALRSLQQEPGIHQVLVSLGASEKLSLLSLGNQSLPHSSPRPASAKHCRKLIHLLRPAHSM

SMILES | target or system | test | test system | conditions | scale | endpoint | result
CC1(C)S[C@@H]2[C@H](NC(=O)[C@H](N)c3ccccc3)C(=O)N2[C@H]1C(=O)O | Escherichia coli |  | clinical isolate RKI-No_97/15 |  |  | MIC | > 16 µg/mL
CCC(C)n1ncn(-c2ccc(N3CCN(c4ccc(OCC5COC(Cn6cncn6)(c6ccc(Cl)cc6Cl)O5)cc4)CC3)cc2)c1=O (centres unmarked) |  |  | human, plasma | oral, 100 mg single dose, mean observed |  | AUC | 1890 ng·h/mL
C=CCCC(=O)O |  | small eyes | zebrafish embryo | nominal concentration |  | EC10 | > 1400 µM
Cn1cnc2c(F)c(Nc3ccc(Br)cc3Cl)c(C(=O)NOCCO)cc21 |  |  | healthy human volunteers, plasma | oral, 25 mg single dose, given alone |  | AUC, geometric mean | 1180 ng·h/mL
C[C@H]1COCCN1c1nc(-c2cnc(N)cc2C(F)F)nc(N2CCOCC2)n1 | ACHN |  |  |  |  | GI50 | 0.231 µM
NC[C@H]1O[C@H](O[C@H]2[C@H](O)[C@@H](O[C@H]3O[C@H](CO)[C@@H](O)[C@H](N)[C@H]3O)[C@H](N)C[C@@H]2N)[C@H](N)C[C@@H]1O |  |  | human |  |  | renal clearance | 1.19 mL/min/kg
Cc1c(C(=O)O)ccc2c3n(nc12)[C@@H]1[C@H](C3)N(CC2CC2)[C@@]2(C(=O)Nc3cc(Cl)ccc32)[C@H]1c1cccc(Cl)c1F |  |  | Abcb1a/b-/- mice, brain, plasma |  |  | Kp | 0.26
COc1ccc([C@@H](O)c2cc(-c3ncnc4cc(N5CCOCC5)ccc34)c(F)cc2Cl)nn1 |  |  | mouse | oral, 20 mg/kg |  | terminal half-life | 2.4 h
N#C[C@@]1(c2ccc3c(N)ncnn23)O[C@H](CO)[C@@H](O)[C@H]1O |  |  | rat |  |  | oral bioavailability | 33%
CN(C)C(=O)c1cc2cnc(Nc3ccc(N4CCNCC4)cn3)nc2n1C1CCCC1 |  |  | healthy human | oral, 600 mg, with: high-fat high-calorie meal | reference: fasted | decrease in Cmax | 23%
CS(=O)(=O)CCNCc1ccc(-c2ccc3ncnc(Nc4ccc(OCc5cccc(F)c5)c(Cl)c4)c3c2)o1 |  |  | human, plasma | 1250 mg/day, 24 h post-dose |  | steady-state Cmin | 1000 ng/mL
COC(=O)C1=C(C)NC(C)=C(C(=O)OCC(C)C)C1c1ccccc1[N+](=O)[O-] (centres unmarked) |  |  |  |  |  | logD | 4.96
c1cc2ccc3ccc4ccc5cccc6c(c1)c2c3c4c56 |  | slow stirring |  |  |  | logKow | 7.24
Nc1ccn([C@H]2CO[C@@H](CO)S2)c(=O)n1 |  |  | rat |  |  | oral bioavailability | 68%
O=C(c1cc(Cc2n[nH]c(=O)c3ccccc23)ccc1F)N1CCN(C(=O)C2CC2)CC1 |  |  | human | 300 mg single dose, tablet |  | AUC(0-t) | 49400 ng·h/mL
CNC(C)C1CCC(N)C(OC2C(N)CC(N)C(OC3OCC(C)(O)C(NC)C3O)C2O)O1 (centres unmarked) | Escherichia coli |  | clinical isolate RKI-No_97/15 |  |  | MIC | > 8 µg/mL
Cn1cc(C[C@@H](N)C(=O)O)c2ccccc21 |  |  | patients | oral, 1200 mg twice daily, phase II trial |  | tolerability | not toxic
C=CC(=O)NC1CCN(c2ncc3ncnc(Nc4ccc(Oc5ccc6c(c5)ncn6C)c(C)c4)c3n2)CC1 |  |  | patients, NSCLC, HER2-mutant, previously treated | 120 mg once daily, treatment-related any grade |  | rash incidence | 33%
Cc1ccc(NC(=O)c2ccc(CN3CCN(C)CC3)cc2)cc1Nc1nccc(-c2cncc(-c3oncc3C)c2)n1 |  |  | mouse | 50 mg/kg/day, steady state |  | Cmax | 2560 ng/mL
O=C(O)C[C@H](O)C[C@H](O)/C=C/c1c(C2CC2)nc2ccccc2c1-c1ccc(F)cc1 |  |  | Sprague Dawley rats | dose not given, with: silymarin | reference: without silymarin | AUC(0-12h) increase | 84%
Nc1cc(C(F)(F)F)c(-c2nc(N3CCOCC3)nc(N3CCOCC3)n2)cn1 | STK36 (Homo sapiens, UniProt Q9NRP7) | enzyme activity |  | 10 µM | reference: untreated | remaining activity | 86%
CN[C@@H](C)C(=O)N[C@H]1CN(S(=O)(=O)c2cccc(S(=O)(=O)N3CC[C@H]4CC[C@@H](C(=O)NC(c5ccccc5)c5ccccc5)N4C(=O)[C@@H](NC(=O)[C@H](C)NC)C3)c2)CC[C@H]2CC[C@@H](C(=O)NC(c3ccccc3)c3ccccc3)N2C1=O |  |  | rat |  | reference: dose | cumulative urinary excretion | < 1%
CCc1cc2c(cc1CC)CC(NC[C@H](O)c1ccc(O)c3[nH]c(=O)ccc13)C2 |  |  | human, plasma | inhaled |  | Tlast | 24 h
Cc1cc(-c2nccc3c2ccn3CC(=O)Nc2ccc(-c3cnccn3)cn2)ccn1 |  | item: total drug | rat | dose not given, 1-month toxicology study |  | Cmax | 27.9 µM
C[C@H](C(=O)NCc1ccccc1)N1C(=O)CCC1=O |  | motor impairment | mouse | intraperitoneal |  | TD50 | > 500 mg/kg
CCN1CCN(Cc2ccc(Nc3ncc(F)c(-c4cc(F)c5nc(C)n(C(C)C)c5c4)n3)nc2)CC1 |  |  | human | 150 mg single dose, with: [14C]compound | reference: dose | faecal excretion unchanged | 7%

A few entries again:
SMILES | target or system | test | test system | conditions | scale | endpoint | result
Nc1ccn([C@H]2CO[C@@H](CO)S2)c(=O)n1 |  |  | rat |  |  | oral bioavailability | 68%
O=C(c1cc(Cc2n[nH]c(=O)c3ccccc23)ccc1F)N1CCN(C(=O)C2CC2)CC1 |  |  | human | 300 mg single dose, tablet |  | AUC(0-t) | 49400 ng·h/mL
CNC(C)C1CCC(N)C(OC2C(N)CC(N)C(OC3OCC(C)(O)C(NC)C3O)C2O)O1 (centres unmarked) | Escherichia coli |  | clinical isolate RKI-No_97/15 |  |  | MIC | > 8 µg/mL
